Assay results from different studies.
Numbered parts are unrelated; each lists some results of a single study.
Sequence of UniProt O95747 (whole entry, looked up): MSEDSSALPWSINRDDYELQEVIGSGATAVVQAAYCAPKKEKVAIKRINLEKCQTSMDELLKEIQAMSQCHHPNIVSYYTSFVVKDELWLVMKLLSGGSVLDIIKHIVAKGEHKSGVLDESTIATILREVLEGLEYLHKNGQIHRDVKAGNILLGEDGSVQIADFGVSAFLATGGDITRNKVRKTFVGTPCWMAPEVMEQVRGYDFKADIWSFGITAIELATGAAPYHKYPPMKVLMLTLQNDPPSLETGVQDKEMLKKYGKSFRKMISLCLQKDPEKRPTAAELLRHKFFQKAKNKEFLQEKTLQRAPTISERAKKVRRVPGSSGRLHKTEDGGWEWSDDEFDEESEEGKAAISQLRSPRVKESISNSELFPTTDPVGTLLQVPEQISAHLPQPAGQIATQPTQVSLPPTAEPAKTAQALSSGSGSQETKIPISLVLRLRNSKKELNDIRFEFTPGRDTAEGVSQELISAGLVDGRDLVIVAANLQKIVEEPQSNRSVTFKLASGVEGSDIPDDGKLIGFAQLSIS
Sequence of UniProt P22607 (whole entry, unmodified, looked up): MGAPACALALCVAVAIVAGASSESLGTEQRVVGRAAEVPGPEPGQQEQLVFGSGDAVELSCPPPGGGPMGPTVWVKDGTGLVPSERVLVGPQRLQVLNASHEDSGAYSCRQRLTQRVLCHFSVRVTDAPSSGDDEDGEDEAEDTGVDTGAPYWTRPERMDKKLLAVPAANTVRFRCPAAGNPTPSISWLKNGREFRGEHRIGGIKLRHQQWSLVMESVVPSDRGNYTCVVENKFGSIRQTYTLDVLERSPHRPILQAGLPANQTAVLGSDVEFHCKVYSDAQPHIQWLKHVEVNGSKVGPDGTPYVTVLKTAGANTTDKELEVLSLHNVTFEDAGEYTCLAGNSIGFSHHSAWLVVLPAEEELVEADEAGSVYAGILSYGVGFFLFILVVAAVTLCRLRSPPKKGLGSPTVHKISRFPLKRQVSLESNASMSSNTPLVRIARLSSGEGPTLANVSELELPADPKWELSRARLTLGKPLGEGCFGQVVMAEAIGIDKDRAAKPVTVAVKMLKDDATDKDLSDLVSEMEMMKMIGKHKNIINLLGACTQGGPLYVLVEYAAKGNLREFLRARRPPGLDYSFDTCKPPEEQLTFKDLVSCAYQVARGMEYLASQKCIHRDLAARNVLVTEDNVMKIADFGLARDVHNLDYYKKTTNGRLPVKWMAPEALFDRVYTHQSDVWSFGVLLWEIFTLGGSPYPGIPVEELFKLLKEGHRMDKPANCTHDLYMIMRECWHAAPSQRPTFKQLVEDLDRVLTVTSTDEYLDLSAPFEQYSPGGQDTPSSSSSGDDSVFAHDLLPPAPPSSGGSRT
Sequence of UniProt P49761 (whole entry, looked up): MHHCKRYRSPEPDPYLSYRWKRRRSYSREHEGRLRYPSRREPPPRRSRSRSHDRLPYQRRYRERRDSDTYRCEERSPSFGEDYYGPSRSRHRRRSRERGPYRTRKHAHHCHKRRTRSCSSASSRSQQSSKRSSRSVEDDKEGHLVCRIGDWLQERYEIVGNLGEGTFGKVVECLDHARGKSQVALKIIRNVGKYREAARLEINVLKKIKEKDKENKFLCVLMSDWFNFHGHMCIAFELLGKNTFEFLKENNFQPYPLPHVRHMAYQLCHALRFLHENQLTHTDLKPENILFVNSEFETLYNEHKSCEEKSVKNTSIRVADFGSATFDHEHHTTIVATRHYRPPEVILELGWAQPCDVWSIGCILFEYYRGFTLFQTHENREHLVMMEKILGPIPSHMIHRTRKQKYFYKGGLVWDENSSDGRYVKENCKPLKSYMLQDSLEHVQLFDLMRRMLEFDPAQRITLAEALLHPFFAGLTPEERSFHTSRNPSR
Sequence of UniProt Q9Y2U5 (whole entry, looked up): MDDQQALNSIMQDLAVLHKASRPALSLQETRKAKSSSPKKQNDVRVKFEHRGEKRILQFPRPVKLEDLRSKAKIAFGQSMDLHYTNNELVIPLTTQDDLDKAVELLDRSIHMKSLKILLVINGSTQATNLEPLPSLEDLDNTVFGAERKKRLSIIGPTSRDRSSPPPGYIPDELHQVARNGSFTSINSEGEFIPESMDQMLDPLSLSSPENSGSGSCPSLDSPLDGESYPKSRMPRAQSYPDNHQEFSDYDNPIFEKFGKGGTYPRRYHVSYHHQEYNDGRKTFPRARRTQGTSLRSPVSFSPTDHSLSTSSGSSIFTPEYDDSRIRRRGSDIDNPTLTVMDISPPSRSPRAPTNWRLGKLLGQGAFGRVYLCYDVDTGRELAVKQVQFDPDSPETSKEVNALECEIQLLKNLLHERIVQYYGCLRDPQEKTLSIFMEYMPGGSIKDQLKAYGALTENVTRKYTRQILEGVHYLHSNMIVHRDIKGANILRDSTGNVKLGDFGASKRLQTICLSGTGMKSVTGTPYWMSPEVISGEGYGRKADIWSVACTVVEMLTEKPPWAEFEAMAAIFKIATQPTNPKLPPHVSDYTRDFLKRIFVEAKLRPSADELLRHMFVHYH

Series 1
Cell line: mouse MPNST tumor cells
Method: high-content nuclear imaging
Refers to: cell number
Tested at: 10 µM
Time: 12 h
Setting: mean of 2 replicates
Reference: plate mean
Reading: higher = more cells
SMILES	nuclei count
CCn1c(=O)c(-c2ccc(-c3cncs3)cc2Cl)cc2cnc(Nc3ccc(N4CCN(C)CC4)cc3)nc21	1.79 z-score
Nc1ccc(-c2cnc(N)c(-c3ccc(Cl)cc3)c2)cn1	4.55 z-score
CN1CCC(=C2c3ccccc3CC(=O)c3sccc32)CC1	2.51 z-score
OC(CN1CCC(Cc2ccc(F)cc2)CC1)c1ccc(Cl)cc1 (stereo not drawn)	-0.00918 z-score
CCCCCCCCCCCCCCCC[N+](C)(C)CCN(Cc1ccc(OC)cc1)c1ncccn1	-3.83 z-score

Series 2
Organism: Sarcocystis neurona
Effect on: parasite growth
Tested at: 10 µM
Time: 96 h
Setting: first screen
Reference: untreated
Structure (SMILES)	log2 fold change
COC(=O)CCc1ccc(OCC(O)CNC(C)C)cc1 (stereo not drawn)	-0.06
CC(=O)OCC(CCn1cnc2cnc(N)nc21)COC(C)=O	-0.09
CCC[C@@H]1C[C@@H](C(=O)N[C@@H]([C@H]2O[C@H](SC)[C@H](O)[C@@H](O)[C@H]2O)[C@@H](C)O)N(C)C1	-0.44
Cc1ncc([N+](=O)[O-])n1CCO	0.000322
CC1(C)S[C@@H]2[C@H](/N=C/N3CCCCCC3)C(=O)N2[C@H]1C(=O)O	0.23

Series 3
Target: Beta-1 adrenergic receptor (ADRB1, Homo sapiens, UniProt P08588)
Sequence of UniProt P08588 (whole entry, looked up): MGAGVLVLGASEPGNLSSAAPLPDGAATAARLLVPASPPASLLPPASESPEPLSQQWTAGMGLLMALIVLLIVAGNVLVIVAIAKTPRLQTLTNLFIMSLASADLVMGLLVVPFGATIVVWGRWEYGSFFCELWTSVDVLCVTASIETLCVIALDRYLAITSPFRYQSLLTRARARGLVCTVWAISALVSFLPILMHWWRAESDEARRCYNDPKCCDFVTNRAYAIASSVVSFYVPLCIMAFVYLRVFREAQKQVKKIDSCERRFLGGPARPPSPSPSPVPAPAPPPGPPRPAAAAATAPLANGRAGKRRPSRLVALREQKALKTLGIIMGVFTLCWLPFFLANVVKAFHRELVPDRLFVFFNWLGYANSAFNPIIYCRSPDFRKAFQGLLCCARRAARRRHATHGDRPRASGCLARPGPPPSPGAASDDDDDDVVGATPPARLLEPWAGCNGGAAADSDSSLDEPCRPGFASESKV
Action: antagonist
SMILES	IC50
Cc1cc(I)ccc1Nc1nc(NCCN2CCOCC2)nc(N2CCOCC2)n1	≥ 100 µM
Oc1ccccc1NCC(O)Cn1ccc2ccccc21 (stereo not drawn)	≥ 100 µM
CNc1nc(-c2cccc3ccccc23)ccc1C#N	≥ 100 µM
O=C(c1cc(-c2ccc(F)cc2)nc2ccccc12)N1CCCC(c2nc(C3CCOCC3)no2)C1 (stereo not drawn)	≥ 100 µM

Series 4
Structure (SMILES): CN(c1ccnc(CNc2nc(Nc3ccc4c(c3)CC(=O)N4)ncc2C(F)(F)F)n1)S(C)(=O)=O
Effect on: cell-free assay
Method: competition with immobilised ligand
Tested at: 1 µM
target	remaining binding [%]
Fibroblast growth factor receptor 3 (FGFR3, Homo sapiens, UniProt P22607, G697C)	89
Dual specificity protein kinase CLK3 (CLK3, Homo sapiens, UniProt P49761)	12
Serine/threonine-protein kinase OSR1 (OXSR1, Homo sapiens, UniProt O95747)	86
Mitogen-activated protein kinase kinase kinase 2 (MAP3K2, Homo sapiens, UniProt Q9Y2U5)	9.7

Series 5
Target: Serine/threonine-protein kinase PAK 6 (PAK6, Homo sapiens, UniProt Q9NQU5)
Sequence of UniProt Q9NQU5 (whole entry, looked up): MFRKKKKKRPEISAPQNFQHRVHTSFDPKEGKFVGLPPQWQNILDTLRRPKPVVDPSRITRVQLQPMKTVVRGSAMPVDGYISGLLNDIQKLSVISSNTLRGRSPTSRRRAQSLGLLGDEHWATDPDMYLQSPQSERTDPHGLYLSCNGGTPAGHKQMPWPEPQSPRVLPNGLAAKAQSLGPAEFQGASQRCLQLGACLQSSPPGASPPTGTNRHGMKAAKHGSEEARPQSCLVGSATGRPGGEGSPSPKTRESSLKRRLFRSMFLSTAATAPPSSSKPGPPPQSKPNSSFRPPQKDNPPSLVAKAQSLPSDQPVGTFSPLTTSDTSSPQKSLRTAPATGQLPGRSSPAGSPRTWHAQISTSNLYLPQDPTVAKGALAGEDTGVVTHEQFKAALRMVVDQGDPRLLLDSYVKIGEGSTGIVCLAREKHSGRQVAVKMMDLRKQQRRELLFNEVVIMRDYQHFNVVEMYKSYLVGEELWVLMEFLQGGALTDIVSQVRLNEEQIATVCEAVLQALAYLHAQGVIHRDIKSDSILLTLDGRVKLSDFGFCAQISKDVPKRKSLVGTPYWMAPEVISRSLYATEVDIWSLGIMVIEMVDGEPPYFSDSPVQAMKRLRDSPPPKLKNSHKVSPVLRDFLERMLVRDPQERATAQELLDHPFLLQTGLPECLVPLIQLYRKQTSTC
Effect on: enzyme activity
Action: inhibitor
Tested at: 0.5 µM
Reference: control
SMILES	remaining activity
Cn1sc(=O)n(Cc2ccccc2)c1=O	93.4%
Nc1ccc2ncnc(NCCc3ccc(Oc4ccccc4)cc3)c2c1	105%
Nc1[nH]nc2nc3ccccc3nc12	96.3%
C#Cc1cccc(Nc2ncnc3cc(OCCOC)c(OCCOC)cc23)c1	104%
O=C(CCCc1ccc(-c2ccccc2F)cc1)Nc1ccc(O)cc1	108%
N#CC(C#N)=C(N)/C(C#N)=C/c1ccc(O)cc1	97%
O=S(=O)(c1cccc2cnccc12)N1CCCNCC1	87%
CC(C)[C@H](CO)Nc1nc(Nc2cc(N)cc(Cl)c2)c2ncn(C(C)C)c2n1	57.3%
NCCNc1ncc(C(N)=O)c(Nc2cccc(C(F)(F)F)c2)n1	94%
CCOC(=O)c1c(C)[nH]c(/C=C2\C(=O)Nc3ccccc32)c1C	81.4%
Oc1ccc(-c2nc(-c3ccncc3)c(-c3ccc(F)cc3)[nH]2)cc1	104%
O=C1NC(=O)C(c2cn(CCCO)c3ncccc23)=C1c1cnccn1	78.2%
OCC(O)CCON=C1C(c2c(O)[nH]c3ccccc23)=Nc2ccccc21 (stereo not drawn)	93.5%
Cn1c2ccccc2c2c3c(c4c5ccccc5n(CCC#N)c4c21)CNC3=O	20.4%
COc1cc2ncnc(Nc3ccc(Oc4ccccc4)cc3)c2cc1OC	109%

A few entries again (series 4):
target	remaining binding [%]
Fibroblast growth factor receptor 3 (FGFR3, Homo sapiens, UniProt P22607, G697C)	89
Dual specificity protein kinase CLK3 (CLK3, Homo sapiens, UniProt P49761)	12
Serine/threonine-protein kinase OSR1 (OXSR1, Homo sapiens, UniProt O95747)	86
Mitogen-activated protein kinase kinase kinase 2 (MAP3K2, Homo sapiens, UniProt Q9Y2U5)	9.7
